# Experimental data from different studies.
# Lines come from different studies, so protocols differ. ± gives the spread as reported.
# ABCG2: Broad substrate specificity ATP-binding cassette transporter ABCG2 (ABCG2, Homo sapiens, UniProt Q9UNQ0)
# Chain of UniProt Q9UNQ0 (whole entry, looked up): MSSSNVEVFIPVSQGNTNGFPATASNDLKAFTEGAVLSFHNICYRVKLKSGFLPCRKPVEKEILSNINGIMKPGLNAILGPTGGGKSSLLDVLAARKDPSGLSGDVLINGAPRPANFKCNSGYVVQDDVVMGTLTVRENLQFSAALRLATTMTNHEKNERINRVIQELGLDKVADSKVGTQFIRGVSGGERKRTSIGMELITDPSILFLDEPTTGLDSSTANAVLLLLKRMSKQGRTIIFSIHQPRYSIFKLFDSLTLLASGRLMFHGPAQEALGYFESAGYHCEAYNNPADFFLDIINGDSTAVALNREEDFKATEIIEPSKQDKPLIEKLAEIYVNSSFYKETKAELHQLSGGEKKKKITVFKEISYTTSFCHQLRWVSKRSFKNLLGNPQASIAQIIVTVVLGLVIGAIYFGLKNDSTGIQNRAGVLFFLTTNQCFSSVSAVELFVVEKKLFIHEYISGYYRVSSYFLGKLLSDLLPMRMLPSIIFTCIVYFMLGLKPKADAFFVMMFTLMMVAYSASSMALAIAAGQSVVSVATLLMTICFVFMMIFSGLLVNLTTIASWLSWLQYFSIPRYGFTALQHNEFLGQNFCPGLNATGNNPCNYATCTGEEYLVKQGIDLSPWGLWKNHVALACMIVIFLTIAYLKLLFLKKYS
# 1,25-dihydroxyvitamin D(3) 24-hydroxylase, mitochondrial: 1,25-dihydroxyvitamin D(3) 24-hydroxylase, mitochondrial (Rattus norvegicus, UniProt Q09128)
# Chain of UniProt Q09128 (whole entry, looked up): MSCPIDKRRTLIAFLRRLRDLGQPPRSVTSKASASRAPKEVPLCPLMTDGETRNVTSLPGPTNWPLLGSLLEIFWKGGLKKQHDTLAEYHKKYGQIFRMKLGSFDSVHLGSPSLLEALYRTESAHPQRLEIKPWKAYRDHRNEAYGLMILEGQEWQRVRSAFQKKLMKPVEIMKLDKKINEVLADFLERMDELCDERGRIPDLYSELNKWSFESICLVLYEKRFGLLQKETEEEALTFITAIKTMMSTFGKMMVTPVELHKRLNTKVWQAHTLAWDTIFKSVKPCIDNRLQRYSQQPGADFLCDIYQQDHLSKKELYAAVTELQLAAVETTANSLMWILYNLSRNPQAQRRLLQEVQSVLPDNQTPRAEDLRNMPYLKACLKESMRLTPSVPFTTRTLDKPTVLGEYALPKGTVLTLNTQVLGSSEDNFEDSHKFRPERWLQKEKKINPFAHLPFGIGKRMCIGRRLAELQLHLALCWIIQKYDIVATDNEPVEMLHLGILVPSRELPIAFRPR
# ALB: Albumin (ALB, Homo sapiens, UniProt P02768)
# Chain of UniProt Q9Z2V5 (whole entry, looked up): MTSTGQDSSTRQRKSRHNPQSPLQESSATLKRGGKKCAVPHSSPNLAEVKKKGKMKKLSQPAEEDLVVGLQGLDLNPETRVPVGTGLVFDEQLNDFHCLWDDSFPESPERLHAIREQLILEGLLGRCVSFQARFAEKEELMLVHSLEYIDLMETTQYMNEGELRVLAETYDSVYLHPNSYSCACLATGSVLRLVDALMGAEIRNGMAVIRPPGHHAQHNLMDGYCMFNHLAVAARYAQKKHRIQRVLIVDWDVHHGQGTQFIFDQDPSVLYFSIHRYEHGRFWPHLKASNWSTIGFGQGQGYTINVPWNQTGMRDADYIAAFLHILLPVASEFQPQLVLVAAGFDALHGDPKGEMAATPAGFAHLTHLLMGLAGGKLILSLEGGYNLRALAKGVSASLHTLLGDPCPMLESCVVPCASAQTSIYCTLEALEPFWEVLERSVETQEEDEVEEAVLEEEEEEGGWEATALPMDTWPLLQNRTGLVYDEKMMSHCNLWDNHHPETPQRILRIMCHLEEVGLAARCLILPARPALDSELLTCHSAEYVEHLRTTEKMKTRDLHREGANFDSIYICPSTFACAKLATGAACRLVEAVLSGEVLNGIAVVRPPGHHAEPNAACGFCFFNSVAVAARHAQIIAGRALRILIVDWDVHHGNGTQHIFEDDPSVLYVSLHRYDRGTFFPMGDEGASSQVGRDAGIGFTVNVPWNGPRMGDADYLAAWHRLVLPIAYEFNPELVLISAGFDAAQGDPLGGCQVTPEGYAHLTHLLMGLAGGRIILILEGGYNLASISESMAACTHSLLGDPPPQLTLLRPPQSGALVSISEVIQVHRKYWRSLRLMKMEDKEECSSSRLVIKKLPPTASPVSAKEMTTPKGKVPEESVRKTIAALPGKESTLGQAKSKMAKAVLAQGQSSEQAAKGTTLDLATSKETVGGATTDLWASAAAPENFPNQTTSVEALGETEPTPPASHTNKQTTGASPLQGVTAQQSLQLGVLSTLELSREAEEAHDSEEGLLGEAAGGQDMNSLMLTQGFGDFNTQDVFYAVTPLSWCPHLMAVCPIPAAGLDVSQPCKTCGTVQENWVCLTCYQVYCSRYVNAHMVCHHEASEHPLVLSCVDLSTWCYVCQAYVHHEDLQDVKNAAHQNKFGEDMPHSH
# Chain of UniProt P16257 (whole entry, looked up): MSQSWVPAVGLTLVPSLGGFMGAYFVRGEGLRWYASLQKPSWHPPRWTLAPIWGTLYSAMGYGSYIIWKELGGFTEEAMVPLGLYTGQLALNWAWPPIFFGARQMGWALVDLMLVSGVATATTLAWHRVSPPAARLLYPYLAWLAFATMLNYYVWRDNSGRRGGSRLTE
# Chain of UniProt Q8R431 (whole entry, looked up): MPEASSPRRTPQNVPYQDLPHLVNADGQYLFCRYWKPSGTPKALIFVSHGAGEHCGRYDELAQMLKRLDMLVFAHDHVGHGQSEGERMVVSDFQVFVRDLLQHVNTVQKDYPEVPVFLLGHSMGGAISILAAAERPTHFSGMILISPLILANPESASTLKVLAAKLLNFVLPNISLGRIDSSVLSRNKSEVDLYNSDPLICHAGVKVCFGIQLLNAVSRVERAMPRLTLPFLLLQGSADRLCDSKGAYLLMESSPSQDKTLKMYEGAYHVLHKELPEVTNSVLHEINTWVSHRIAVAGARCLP
# Chain of UniProt P08684 (whole entry, looked up): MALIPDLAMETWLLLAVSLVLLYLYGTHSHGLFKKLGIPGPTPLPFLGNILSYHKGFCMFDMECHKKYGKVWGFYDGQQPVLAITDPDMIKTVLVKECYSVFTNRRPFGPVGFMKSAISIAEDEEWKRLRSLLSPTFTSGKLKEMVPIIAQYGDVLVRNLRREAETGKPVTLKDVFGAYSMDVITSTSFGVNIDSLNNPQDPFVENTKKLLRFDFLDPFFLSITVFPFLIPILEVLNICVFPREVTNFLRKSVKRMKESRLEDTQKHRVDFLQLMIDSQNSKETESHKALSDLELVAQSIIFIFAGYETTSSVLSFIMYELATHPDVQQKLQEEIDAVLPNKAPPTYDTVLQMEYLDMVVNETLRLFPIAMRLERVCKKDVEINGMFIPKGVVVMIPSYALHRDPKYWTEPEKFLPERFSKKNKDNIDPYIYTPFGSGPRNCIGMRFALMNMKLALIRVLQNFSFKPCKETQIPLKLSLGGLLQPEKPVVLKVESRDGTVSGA
SMILES,target,test,test system,setting,how to read,measurement,result
COc1ccc2cc(NC(=O)c3cc(-c4ccncc4)nc4ccccc34)ccc2c1,"Cytochrome P450 3A4 (CYP3A4, Homo sapiens, UniProt P08684)","substrate, refers to: naphthalene-hydroxylated metabolite M1",baculosomes,,,kcat,0.41 min⁻¹
O=C(O)C1OC(Oc2cccc(-c3cc(=O)c4ccccc4o3)c2)C(O)C(O)C1O (stereo not shown),ABCG2,"glucuronide efflux, substrate",HeLa cells expressing UGT1A9,,,Km,5.6 ± 2.8 µM
C=C1CCC(O)CC1=CC=C1CCCC2(C)C1CCC2C(C)(O)c1ccccc1 (stereo not shown),"1,25-dihydroxyvitamin D(3) 24-hydroxylase, mitochondrial",substrate,phospholipid vesicles,"1 h, 0.025 mol per mol phospholipid, 1 µM enzyme",,number of products,3
O=C(O)C1OC(Oc2ccc(-c3cc(=O)c4ccccc4o3)cc2)C(O)C(O)C1O (stereo not shown),ABCG2,"efflux of glucuronide, substrate",HeLa-UGT1A9,,,Km,17.5 µM
Cc1cc(C)c(-c2cc(C)c(OP(=O)([O-])OCCC[C@H](C(=O)[O-])N3CCN(CC(=O)[O-])CCN(CC(=O)NCCC(=O)[O-])CCN(CC(=O)[O-])CC3)cc2C)c(C)c1.[Gd+3],ALB,"albumin binding, variable temperature NMRD fit",albumin-bound complex,"0.1 mM, pH 7.4, fit 5-35 °C data, with: HSA 0.66 mM",,rotational correlation time,11.6 ns
O=C(NO)c1ccc(CN2CCCCc3ccccc32)c([18F])c1,"Hdac6 (Mus musculus, UniProt Q9Z2V5)",PET/CT,"male C57BL/6 mice, whole brain","intravenous, 60 min",,peak brain uptake,7 %ID/cc
O=C(O)C1OC(Oc2c(-c3cccc(O)c3)oc3ccccc3c2=O)C(O)C(O)C1O (stereo not shown),ABCG2,"glucuronide efflux, substrate",HeLa cells expressing UGT1A9,,,Km,45.2 ± 16.1 µM
Cc1ccc(C(=O)Nc2cc(Br)cc(C(F)(F)F)c2)cc1Nc1ncccn1,ABCG2,,"MCF7-FLV1000, overexpressing",with: mitoxantrone 5 µM,,IC20,1920 nM
COc1cc(-c2nc3ccccc3s2)cc(CN2Cc3cccc(n3)CNCc3cccc(n3)C2)c1O,Cu2+ complex [MHL]+,UV-vis titration,,room temperature,,stability constant,2.88 log K
O=C(/C=C/c1ccc2c(c1)OCO2)c1ccc2ccccc2c1,ABCG2,"mitoxantrone efflux, flow cytometry",HEK293 transfected with ABCG2,"5 µM, 30 min, with: mitoxantrone",reference: 5 µM GF120918 as 100%,inhibition,24.1 ± 6.9%
O=C(O)C1OC(Oc2ccc3oc(-c4ccccc4)cc(=O)c3c2)C(O)C(O)C1O (stereo not shown),ABCG2,"substrate, vesicular transport",BCRP membrane vesicles,,,Km,23.4 µM
CCc1cc(C)nc2c(CC(=O)N(CC)CC)c(-c3ccc(OCC[18F])cc3)nn12,"Tspo (Rattus norvegicus, UniProt P16257)",Logan plot analysis,"rat C6 glioma model, brain","dose not given, 60 min dynamic PET",,total distribution volume,1.97 ± 0.3 mL/cm3
Cc1cc(C)c(-c2cc(C)c(OP(=O)([O-])OCCC[C@H](C(=O)[O-])N3CCN(CC(=O)[O-])CCN(C(C(=O)[O-])C(=O)[O-])CCN(CC(=O)[O-])CC3)cc2C)c(C)c1.[Gd+3],ALB,"albumin binding, variable temperature NMRD fit",albumin-bound complex,"0.1 mM, pH 7.4, 37 °C, fit 5-35 °C data, with: HSA 0.66 mM",,water residency time,9.8 ns
O=C(/C=C/c1c(Cl)cccc1Cl)c1ccc2c(c1)OCO2,ABCG2,"mitoxantrone efflux, flow cytometry",HEK293 transfected with ABCG2,"5 µM, 30 min, with: mitoxantrone",reference: 5 µM GF120918 as 100%,inhibition,40.9 ± 1%
O=C(O)[C@@H]1C[C@@H](O)CN1C(=O)[C@@H]1CCCN1,iron(III) ion,"complex formation, from log β",aqueous 0.15 M NaCl,"40 °C, MAH−1 complex species",,−ΔG,66 kJ/mol
Cc1cc(C)c(-c2cc(C)c(OP(=O)([O-])OCCC[C@H](C(=O)[O-])N3CCN(CC(=O)[O-])CCN(Cc4cc([N+](=O)[O-])ccc4[O-])CCN(CC(=O)[O-])CC3)cc2C)c(C)c1.[Gd+3],ALB,variable temperature NMRD,HSA-bound complex,,,ZFS modulation correlation time,25 ps
[64Cu+2].c1ccc(CNCc2ccc(CN3CCCN4CCNCCCN(CC4)CC3)cc2)nc1,CXCR4,,"NOD/SCID mouse, U87 and U87-stb-CXCR4 xenografts, liver","iv, 60 min, ex vivo",,tissue uptake,91.5 ± 6.03 %ID/g
COc1cc(OC)c(/C=C/C(=O)c2ccc3ccccc3c2)c(OC)c1,ABCG2,"mitoxantrone efflux, flow cytometry",HEK293 transfected with ABCG2,"5 µM, 30 min, with: mitoxantrone",reference: 5 µM GF120918 as 100%,inhibition,42.1 ± 8.8%
[64Cu+2].c1cnc(CNCc2ccc(CN3CCCN4CCNCCCN(CC4)CC3)cc2)nc1,CXCR4,,"NOD/SCID mouse, U87 and U87-stb-CXCR4 xenografts, heart","iv, 450 min, ex vivo",,tissue uptake,1.45 ± 0.24 %ID/g
O=C(O)C1OC(Oc2ccccc2-c2cc(=O)c3ccccc3o2)C(O)C(O)C1O (stereo not shown),ABCG2,"efflux of glucuronide, substrate",HeLa-UGT1A9,,,Km,5.4 µM
O=C(O[C@H](CO)C(F)(F)F)N1C[C@@H]2[C@H](C1)[C@H]2c1ccn(-c2ccc([18F])nc2)n1,"Monoglyceride lipase (Rattus norvegicus, UniProt Q8R431)",PET,"Sprague-Dawley rats, whole brain",iv,,Tmax brain uptake,1.5 min
O=C(O)C1OC(Oc2c(-c3ccccc3)oc3ccc(O)cc3c2=O)C(O)C(O)C1O (stereo not shown),ABCG2,"substrate, glucuronide efflux",HeLa-UGT1A9 cells,,,log CLint,0.04
COc1cc(O)c(C(=O)/C=C/c2cccc3ccccc23)c(OC)c1,ABCG2,"mitoxantrone efflux, flow cytometry",HEK293 transfected with ABCG2,"5 µM, 30 min, with: mitoxantrone",reference: 5 µM GF120918 as 100%,inhibition,82.3 ± 11.1%
COc1cc(-c2nc3ccccc3s2)cc(CN2Cc3cccc(n3)CN(C)Cc3cccc(n3)C2)c1O,Cu2+ complex [MHL]+,UV-vis titration,,room temperature,,stability constant,4.01 log K
[11CH3]Oc1ccc(C(=O)Nc2c(-c3cccs3)nc3ccccn23)cc1,δ-containing GABAA receptor,,"pig (female Landrace × Yorkshire × Duroc), hippocampus","intravenous bolus, dose not given",reference: baseline,total distribution volume,3.8 mL/cm³
Cc1ccc(/C=C/C(=O)c2ccc3ccccc3c2)cc1,ABCG2,"mitoxantrone efflux, flow cytometry",HEK293 transfected with ABCG2,"5 µM, 30 min, with: mitoxantrone",reference: 5 µM GF120918 as 100%,inhibition,11 ± 2.8%
Cc1cc(C)c(-c2cc(C)c(OP(=O)([O-])OCCC[C@H](C(=O)[O-])N3CCN(CC(=O)[O-])CCN(CC(=O)NCC(=O)[O-])CCN(CC(=O)[O-])CC3)cc2C)c(C)c1.[Gd+3],ALB,variable temperature NMRD,HSA-bound complex,,,ZFS modulation correlation time,17 ps
O=C(O)C1OC(Oc2ccc3c(=O)cc(-c4ccccc4)oc3c2)C(O)C(O)C1O (stereo not shown),ABCG2,"substrate, vesicular transport",BCRP membrane vesicles,,,Km,12.6 µM
O=C(/C=C/c1cccs1)c1ccc2c(c1)OCO2,ABCG2,"mitoxantrone efflux, flow cytometry",HEK293 transfected with ABCG2,"5 µM, 30 min, with: mitoxantrone",reference: 5 µM GF120918 as 100%,inhibition,18.2 ± 5.2%
Cc1cc(C)c(-c2cc(C)c(OP(=O)([O-])OCCC[C@H](C(=O)[O-])N3CCN(CC(=O)[O-])CCN(Cc4ccccc4[O-])CCN(CC(=O)[O-])CC3)cc2C)c(C)c1.[Gd+3],ALB,"albumin binding, variable temperature NMRD fit",albumin-bound complex,"0.1 mM, pH 7.4, 37 °C, fit 5-35 °C data, with: HSA 0.66 mM",,water residency time,0.7 ns
O=C(/C=C/c1ccccc1Cl)c1ccc2c(c1)OCO2,ABCG2,"mitoxantrone efflux, flow cytometry",HEK293 transfected with ABCG2,"5 µM, 30 min, with: mitoxantrone",reference: 5 µM GF120918 as 100%,inhibition,59.1 ± 11.2%
C=C1CCC(O)CC1=CC=C1CCCC2(C)C1CCC2C(C)(C)O (stereo not shown),"1,25-dihydroxyvitamin D(3) 24-hydroxylase, mitochondrial",substrate,phospholipid vesicles,"1 h, 0.025 mol per mol phospholipid, 1 µM enzyme",,number of products,2
Cc1sc2c(c1C)C(c1ccc(Cl)cc1)=N[C@@H](CC(=O)NCCOCCOCCOCCNC(=O)C(c1ccc(CNc3cccc4c3CN(C3CCC(=O)NC3=O)C4=O)cc1)N1CCOCC1)c1nnc(C)n1-2 (stereo partly shown),ALB,"HPLC, immobilised HSA column",,concentration not given,,HSA binding,90%
COc1cc(/C=C/C(=O)c2ccc(Br)cc2)ccc1OCc1ccccc1,ABCG2,"mitoxantrone efflux, flow cytometry",HEK293 transfected with ABCG2,"5 µM, 30 min, with: mitoxantrone",reference: 5 µM GF120918 as 100%,inhibition,73 ± 2.6%

# For quick reference, copied from above:
SMILES,target,test,test system,setting,how to read,measurement,result
O=C(NO)c1ccc(CN2CCCCc3ccccc32)c([18F])c1,"Hdac6 (Mus musculus, UniProt Q9Z2V5)",PET/CT,"male C57BL/6 mice, whole brain","intravenous, 60 min",,peak brain uptake,7 %ID/cc
O=C(O)C1OC(Oc2c(-c3cccc(O)c3)oc3ccccc3c2=O)C(O)C(O)C1O (stereo not shown),ABCG2,"glucuronide efflux, substrate",HeLa cells expressing UGT1A9,,,Km,45.2 ± 16.1 µM
